Literature values, collected from citations in different studies.
Lines come from different studies, so protocols differ. ± gives the spread as reported. Converted amounts (≈) assume the structure as drawn.
DRD2: D(2) dopamine receptor (DRD2, Homo sapiens, UniProt P14416)
Chain of UniProt P14416 (whole entry, looked up): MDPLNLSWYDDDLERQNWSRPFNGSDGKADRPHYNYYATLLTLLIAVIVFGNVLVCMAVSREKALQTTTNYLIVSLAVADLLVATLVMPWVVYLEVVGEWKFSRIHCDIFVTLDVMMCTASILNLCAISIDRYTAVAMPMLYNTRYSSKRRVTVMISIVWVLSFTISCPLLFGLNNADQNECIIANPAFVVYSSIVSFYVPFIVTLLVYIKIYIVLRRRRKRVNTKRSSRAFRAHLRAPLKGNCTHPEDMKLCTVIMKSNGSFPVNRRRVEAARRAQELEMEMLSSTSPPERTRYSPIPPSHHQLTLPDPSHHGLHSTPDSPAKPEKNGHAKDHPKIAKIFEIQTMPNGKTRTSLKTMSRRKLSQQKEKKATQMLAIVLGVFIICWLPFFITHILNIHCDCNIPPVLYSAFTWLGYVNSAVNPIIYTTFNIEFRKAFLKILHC
Chain of UniProt P16257 (whole entry, looked up): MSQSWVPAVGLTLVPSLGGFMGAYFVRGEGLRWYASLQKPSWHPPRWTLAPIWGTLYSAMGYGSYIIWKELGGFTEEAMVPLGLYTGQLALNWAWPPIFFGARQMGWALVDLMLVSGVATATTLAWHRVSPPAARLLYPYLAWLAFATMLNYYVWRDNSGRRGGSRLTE
Chain of UniProt P18825 (whole entry, looked up): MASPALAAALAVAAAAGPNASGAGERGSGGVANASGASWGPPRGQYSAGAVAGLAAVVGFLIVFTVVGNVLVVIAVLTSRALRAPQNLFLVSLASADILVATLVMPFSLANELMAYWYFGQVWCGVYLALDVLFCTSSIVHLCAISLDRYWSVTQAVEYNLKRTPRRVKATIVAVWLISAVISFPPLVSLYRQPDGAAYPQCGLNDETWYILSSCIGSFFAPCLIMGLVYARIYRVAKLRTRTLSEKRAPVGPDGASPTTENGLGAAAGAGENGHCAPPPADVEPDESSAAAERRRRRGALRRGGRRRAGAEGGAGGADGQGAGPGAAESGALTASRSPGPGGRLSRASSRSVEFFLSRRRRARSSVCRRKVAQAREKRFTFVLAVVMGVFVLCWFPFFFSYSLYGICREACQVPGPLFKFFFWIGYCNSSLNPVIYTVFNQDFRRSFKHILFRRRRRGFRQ
Chain of UniProt P35968 (whole entry, looked up): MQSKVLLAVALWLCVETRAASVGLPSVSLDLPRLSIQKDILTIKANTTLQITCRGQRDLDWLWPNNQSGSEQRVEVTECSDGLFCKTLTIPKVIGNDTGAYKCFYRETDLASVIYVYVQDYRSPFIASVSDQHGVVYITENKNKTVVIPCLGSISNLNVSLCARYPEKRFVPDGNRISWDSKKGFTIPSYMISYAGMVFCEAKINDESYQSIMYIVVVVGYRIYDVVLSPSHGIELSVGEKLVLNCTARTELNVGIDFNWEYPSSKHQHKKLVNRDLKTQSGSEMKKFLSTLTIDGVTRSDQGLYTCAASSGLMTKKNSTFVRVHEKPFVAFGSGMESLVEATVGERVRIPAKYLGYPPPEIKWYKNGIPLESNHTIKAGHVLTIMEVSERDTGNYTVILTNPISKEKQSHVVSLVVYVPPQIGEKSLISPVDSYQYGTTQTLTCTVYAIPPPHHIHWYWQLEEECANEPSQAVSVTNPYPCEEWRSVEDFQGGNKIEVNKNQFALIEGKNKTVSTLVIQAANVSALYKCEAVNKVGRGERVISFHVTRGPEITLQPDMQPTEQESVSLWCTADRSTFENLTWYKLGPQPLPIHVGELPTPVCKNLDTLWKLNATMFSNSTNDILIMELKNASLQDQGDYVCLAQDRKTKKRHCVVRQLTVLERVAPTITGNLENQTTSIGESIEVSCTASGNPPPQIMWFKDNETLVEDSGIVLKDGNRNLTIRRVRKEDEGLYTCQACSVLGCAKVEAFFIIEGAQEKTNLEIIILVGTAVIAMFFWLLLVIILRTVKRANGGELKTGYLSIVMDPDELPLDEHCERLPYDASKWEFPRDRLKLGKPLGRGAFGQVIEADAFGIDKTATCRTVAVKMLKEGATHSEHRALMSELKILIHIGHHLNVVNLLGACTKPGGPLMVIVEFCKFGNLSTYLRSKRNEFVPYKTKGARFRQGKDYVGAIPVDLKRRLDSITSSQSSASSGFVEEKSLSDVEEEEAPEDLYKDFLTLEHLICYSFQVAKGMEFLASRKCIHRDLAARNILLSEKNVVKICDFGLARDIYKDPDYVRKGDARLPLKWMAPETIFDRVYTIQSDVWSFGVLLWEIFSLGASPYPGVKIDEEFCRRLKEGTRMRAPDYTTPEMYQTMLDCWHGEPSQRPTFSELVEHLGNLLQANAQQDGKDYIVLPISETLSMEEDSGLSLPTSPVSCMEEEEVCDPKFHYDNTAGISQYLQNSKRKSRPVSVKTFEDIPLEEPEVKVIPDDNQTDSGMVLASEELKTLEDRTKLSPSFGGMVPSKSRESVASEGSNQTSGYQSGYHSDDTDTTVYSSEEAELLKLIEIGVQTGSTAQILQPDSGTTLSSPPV
Chain of UniProt Q9P1W9 (whole entry, looked up): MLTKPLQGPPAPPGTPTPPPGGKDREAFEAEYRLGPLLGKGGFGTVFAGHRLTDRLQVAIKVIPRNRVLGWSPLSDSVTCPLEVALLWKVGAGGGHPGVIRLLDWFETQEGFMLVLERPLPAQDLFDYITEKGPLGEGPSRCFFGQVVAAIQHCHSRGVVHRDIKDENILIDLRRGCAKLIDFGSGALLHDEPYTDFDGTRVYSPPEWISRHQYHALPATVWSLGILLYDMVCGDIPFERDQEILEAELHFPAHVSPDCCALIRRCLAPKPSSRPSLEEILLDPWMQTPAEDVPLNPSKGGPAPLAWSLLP
Chain of UniProt P09874 (whole entry, looked up): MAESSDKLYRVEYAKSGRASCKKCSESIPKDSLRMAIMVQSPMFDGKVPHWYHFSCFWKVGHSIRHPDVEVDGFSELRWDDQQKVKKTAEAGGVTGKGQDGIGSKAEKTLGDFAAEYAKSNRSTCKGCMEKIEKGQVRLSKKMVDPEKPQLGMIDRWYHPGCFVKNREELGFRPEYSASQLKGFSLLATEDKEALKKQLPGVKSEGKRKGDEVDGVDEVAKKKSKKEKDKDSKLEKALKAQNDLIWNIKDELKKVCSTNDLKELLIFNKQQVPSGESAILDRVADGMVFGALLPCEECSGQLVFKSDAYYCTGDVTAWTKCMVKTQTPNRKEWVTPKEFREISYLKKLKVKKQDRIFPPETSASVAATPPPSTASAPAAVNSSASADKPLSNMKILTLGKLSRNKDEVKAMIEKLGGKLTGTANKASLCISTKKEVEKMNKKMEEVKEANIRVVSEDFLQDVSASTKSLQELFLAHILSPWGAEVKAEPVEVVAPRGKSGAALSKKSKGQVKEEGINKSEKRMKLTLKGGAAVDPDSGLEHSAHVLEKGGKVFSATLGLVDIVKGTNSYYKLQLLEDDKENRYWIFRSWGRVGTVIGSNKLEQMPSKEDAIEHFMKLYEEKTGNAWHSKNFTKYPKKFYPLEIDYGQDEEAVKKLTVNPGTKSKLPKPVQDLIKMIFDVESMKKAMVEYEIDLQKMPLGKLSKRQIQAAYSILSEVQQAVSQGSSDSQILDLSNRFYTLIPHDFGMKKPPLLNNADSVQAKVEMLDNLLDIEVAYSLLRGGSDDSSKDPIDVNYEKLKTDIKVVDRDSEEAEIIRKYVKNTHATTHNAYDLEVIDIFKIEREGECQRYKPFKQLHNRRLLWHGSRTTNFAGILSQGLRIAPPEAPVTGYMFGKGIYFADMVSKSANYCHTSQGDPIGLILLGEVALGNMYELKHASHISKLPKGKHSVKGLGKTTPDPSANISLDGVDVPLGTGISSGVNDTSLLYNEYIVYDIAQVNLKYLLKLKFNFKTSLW
Chain of UniProt Q9Y6L6 (whole entry, looked up): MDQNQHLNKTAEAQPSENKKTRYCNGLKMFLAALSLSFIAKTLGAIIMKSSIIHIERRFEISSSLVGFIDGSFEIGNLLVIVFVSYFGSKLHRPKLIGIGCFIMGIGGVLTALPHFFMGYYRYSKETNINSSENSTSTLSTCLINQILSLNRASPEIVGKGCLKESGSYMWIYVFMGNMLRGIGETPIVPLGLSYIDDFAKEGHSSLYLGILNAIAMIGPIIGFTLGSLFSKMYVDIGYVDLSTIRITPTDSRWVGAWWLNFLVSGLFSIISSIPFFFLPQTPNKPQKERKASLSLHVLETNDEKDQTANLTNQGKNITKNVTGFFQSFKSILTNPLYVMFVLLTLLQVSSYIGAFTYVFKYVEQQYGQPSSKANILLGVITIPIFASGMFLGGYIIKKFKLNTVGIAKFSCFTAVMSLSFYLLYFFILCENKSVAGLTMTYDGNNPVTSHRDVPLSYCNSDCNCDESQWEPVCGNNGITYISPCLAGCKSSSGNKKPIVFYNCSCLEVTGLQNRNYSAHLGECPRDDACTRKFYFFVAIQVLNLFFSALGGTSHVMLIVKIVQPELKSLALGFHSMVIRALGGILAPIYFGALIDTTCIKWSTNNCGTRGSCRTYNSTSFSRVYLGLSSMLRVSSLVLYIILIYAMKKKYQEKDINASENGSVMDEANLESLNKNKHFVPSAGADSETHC

Nc1ncnc2c1ncn2[C@@H]1O[C@H](COP(=O)(O)CP(=O)(O)OP(=O)(O)O)[C@@H](O)[C@H]1O — Ki (P2X receptor; radioligand binding): 18 nM
O=C(O)C1=CCCN(CCON=C(c2ccccc2)c2ccccc2)C1 — Ki (Sodium- and chloride-dependent GABA transporter 1 (Slc6a1, Rattus norvegicus, UniProt P23978); binding; historical reference data): 200 nM
OC[C@H]1O[C@@H](n2ccc3c(SCc4ccc(Cl)c(Cl)c4)ncnc32)[C@H](O)[C@@H]1O — Ki (adenosine kinase (Toxoplasma gondii); binding): 28000 ± 11000 nM
O=c1cnn([C@@H]2O[C@H](CO)[C@@H](O)[C@H]2O)c(=S)[nH]1 — Ki (cytidine deaminase (human); competitive inhibitor; concentration not given): 290000 nM
CNC(C)C1CCC(N)C(OC2C(N)CC(N)C(OC3OCC(C)(O)C(NC)C3O)C2O)O1 (stereo not drawn) — MIC (Klebsiella pneumoniae; clinical isolate RKI-No_164/16): > 8 µg/mL
CCC(C)(C)C(=O)C(=O)N1CCC[C@H]1C(=O)OCCCc1cccnc1 — Ki (FKBP12; peptidyl-prolyl isomerase activity, inhibitor): 7.5 nM
CCc1cccc(N2CCN(C[C@H](O)CCNC(=O)c3cc4ccccc4[nH]3)CC2)c1Cl — Ki (DRD2; binding): 75.8 nM
O=C1C=CN([C@@H]2O[C@H](CO)[C@@H](O)[C@H]2O)C(=O)C1 — Ki (cytidine deaminase (human); competitive inhibitor; concentration not given): 110000 nM
CCCN(CCC1(O)CC(NC(=O)c2ccc3ccccc3c2)C1)C1CC1c1ccc(Cl)cc1 (stereo not drawn) — Ki (DRD2; binding): 623 nM
Cc1cn([C@@H]2O[C@H](CO)[C@@H](O)[C@H]2O)c(=O)[nH]c1=O — Ki (cytidine deaminase (human); competitive inhibitor; concentration not given): 440000 nM
OC[C@H]1O[C@@H](n2ccc3c(SCc4ccc(F)cc4F)ncnc32)[C@H](O)[C@@H]1O — Ki (adenosine kinase (Toxoplasma gondii); binding): 16000 ± 3900 nM
O=[N+]([O-])C1=Cc2cc(I)ccc2OC1C(F)(F)F (stereo not drawn) — Ki (Alpha-2C adrenergic receptor (ADRA2C, Homo sapiens, UniProt P18825)): 2600 nM
CNC(=O)[C@@]12C[C@@H]1[C@@H](n1cnc3c(NC)nc(C#Cc4ccc(F)c(F)c4)nc31)[C@H](O)[C@@H]2O — Ki (β3; radioligand binding): 1000 to 10000 nM
CN[C@@H](C)C(=O)N[C@H]1CN(C(=O)CC(C)C)CC[C@H]2CC[C@@H](C(=O)NC(c3ccccc3)c3ccccc3)N2C1=O — Ki (XIAP): 66.4 nM
O=c1ccn([C@H]2C[C@H](O)[C@@H](CO)O2)c(=O)[nH]1 — Ki (cytidine deaminase (human); competitive inhibitor; concentration not given): 440000 nM
CCc1cc(Cl)c(OC)c(N2CCN(C[C@H](O)CCNC(=O)c3cc4ccccc4[nH]3)CC2)c1 — Ki (DRD2; binding): 11400 nM
CO[C@H]1/C=C/O[C@@]2(C)Oc3c(C)c(O)c4c(O)c(c(/C=N/N5CCN(C)CC5)c(O)c4c3C2=O)NC(=O)/C(C)=C\C=C\[C@H](C)[C@H](O)[C@@H](C)[C@@H](O)[C@@H](C)[C@H](OC(C)=O)[C@@H]1C — Ki (Solute carrier organic anion transporter family member 1B1 (SLCO1B1, Homo sapiens, UniProt Q9Y6L6); inhibitor): 300 to 4400 nM
C[C@H]1COCCN1c1nc(-c2cnc(N)cc2C(F)F)nc(N2CCOCC2)n1 — GI50 (COLO-829): 930 nM
CNC(=O)[C@@]12C[C@@H]1[C@@H](n1cnc3c(NCc4cccc(Cl)c4)nc(C#Cc4ccc(F)c(F)c4)nc31)[C@H](O)[C@@H]2O — Ki (Translocator protein (Tspo, Rattus norvegicus, UniProt P16257); radioligand binding): < 1000 nM
Nc1cc(C(F)(F)F)c(-c2nc(N3CCOCC3)nc(N3CCOCC3)n2)cn1 — remaining activity (Serine/threonine-protein kinase pim-2 (PIM2, Homo sapiens, UniProt Q9P1W9); enzyme activity; 10 µM; reference: untreated): 86%
N=C(NOCC(O)CN1CCCCC1)c1cccnc1 (stereo not drawn) — Ki (Poly [ADP-ribose] polymerase 1 (PARP1, Homo sapiens, UniProt P09874); inhibitor): 57000 nM
Nc1ccc(Br)cc1S(=O)(=O)C[C@H](N)C(=O)O — Ki (kynureninase (Pseudomonas fluorescens); inhibitor): 400 nM
CO[C@H]1/C=C/O[C@@]2(C)Oc3c(C)c(O)c4c(O)c(c(/C=N/N5CCN(C)CC5)c(O)c4c3C2=O)NC(=O)/C(C)=C\C=C\[C@H](C)[C@H](O)[C@@H](C)[C@@H](O)[C@@H](C)[C@H](OC(C)=O)[C@@H]1C — Ki (OATP (rat); inhibitor): 1000 to 2000 nM
C=CCc1ccc(O)c(OC)c1 — Ki (Carbonic anhydrase 2 (CA2, Homo sapiens, UniProt P00918)): 531 nM
CO[C@]1(C(=O)N[C@@H](C)c2ccc(-n3cc(F)cn3)nc2)CC[C@H](c2nc(C)cc(Nc3cc(C)[nH]n3)n2)CC1 — Ki (Vascular endothelial growth factor receptor 2 (KDR, Homo sapiens, UniProt P35968); not stated): 16 nM
CC1(C)S[C@@H]2[C@H](NC(=O)[C@H](N)c3ccccc3)C(=O)N2[C@H]1C(=O)O — MIC (Klebsiella pneumoniae; clinical isolate RKI-No_461/16): 16 µg/mL (≈ 45.8 µM)
O=C(O)/C(=C/c1c(C(=O)O)[nH]c2cc(Cl)cc(Cl)c12)c1ccccc1 — Ki (Glutamate receptor ionotropic, NMDA 1 (Grin1, Rattus norvegicus, UniProt P35439); binding): 21 nM

Excerpt of the above:
Cc1cn([C@@H]2O[C@H](CO)[C@@H](O)[C@H]2O)c(=O)[nH]c1=O — Ki (cytidine deaminase (human); competitive inhibitor; concentration not given): 440000 nM
OC[C@H]1O[C@@H](n2ccc3c(SCc4ccc(F)cc4F)ncnc32)[C@H](O)[C@@H]1O — Ki (adenosine kinase (Toxoplasma gondii); binding): 16000 ± 3900 nM
O=[N+]([O-])C1=Cc2cc(I)ccc2OC1C(F)(F)F (stereo not drawn) — Ki (Alpha-2C adrenergic receptor (ADRA2C, Homo sapiens, UniProt P18825)): 2600 nM
